Experimental data from different studies.
Numbered parts are unrelated; each lists some results of a single study. Changes are numbered by the printed parent chain.
UniProt O75716, sequence (whole entry, looked up): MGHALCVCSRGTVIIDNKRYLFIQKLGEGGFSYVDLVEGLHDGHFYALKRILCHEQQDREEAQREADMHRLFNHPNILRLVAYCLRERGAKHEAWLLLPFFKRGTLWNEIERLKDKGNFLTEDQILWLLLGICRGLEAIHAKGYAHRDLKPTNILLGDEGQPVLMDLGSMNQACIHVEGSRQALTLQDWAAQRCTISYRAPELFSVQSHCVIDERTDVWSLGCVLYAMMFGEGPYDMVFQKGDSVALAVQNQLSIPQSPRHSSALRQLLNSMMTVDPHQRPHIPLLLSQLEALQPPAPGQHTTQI
UniProt P42685, sequence (whole entry, looked up): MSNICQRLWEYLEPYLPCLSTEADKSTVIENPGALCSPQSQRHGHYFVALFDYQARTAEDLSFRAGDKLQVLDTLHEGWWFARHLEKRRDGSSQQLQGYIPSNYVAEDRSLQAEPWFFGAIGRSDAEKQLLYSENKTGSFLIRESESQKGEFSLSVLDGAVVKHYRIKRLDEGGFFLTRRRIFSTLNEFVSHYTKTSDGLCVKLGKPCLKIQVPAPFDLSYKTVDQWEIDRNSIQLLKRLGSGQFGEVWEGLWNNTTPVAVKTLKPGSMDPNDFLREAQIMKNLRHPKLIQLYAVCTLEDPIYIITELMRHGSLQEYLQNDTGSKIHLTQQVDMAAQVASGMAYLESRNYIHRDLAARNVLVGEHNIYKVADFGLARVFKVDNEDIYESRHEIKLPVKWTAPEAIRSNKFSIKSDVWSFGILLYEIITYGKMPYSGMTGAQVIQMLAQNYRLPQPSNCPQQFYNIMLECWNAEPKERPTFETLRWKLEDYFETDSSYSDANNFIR
UniProt P42684, sequence (whole entry, looked up): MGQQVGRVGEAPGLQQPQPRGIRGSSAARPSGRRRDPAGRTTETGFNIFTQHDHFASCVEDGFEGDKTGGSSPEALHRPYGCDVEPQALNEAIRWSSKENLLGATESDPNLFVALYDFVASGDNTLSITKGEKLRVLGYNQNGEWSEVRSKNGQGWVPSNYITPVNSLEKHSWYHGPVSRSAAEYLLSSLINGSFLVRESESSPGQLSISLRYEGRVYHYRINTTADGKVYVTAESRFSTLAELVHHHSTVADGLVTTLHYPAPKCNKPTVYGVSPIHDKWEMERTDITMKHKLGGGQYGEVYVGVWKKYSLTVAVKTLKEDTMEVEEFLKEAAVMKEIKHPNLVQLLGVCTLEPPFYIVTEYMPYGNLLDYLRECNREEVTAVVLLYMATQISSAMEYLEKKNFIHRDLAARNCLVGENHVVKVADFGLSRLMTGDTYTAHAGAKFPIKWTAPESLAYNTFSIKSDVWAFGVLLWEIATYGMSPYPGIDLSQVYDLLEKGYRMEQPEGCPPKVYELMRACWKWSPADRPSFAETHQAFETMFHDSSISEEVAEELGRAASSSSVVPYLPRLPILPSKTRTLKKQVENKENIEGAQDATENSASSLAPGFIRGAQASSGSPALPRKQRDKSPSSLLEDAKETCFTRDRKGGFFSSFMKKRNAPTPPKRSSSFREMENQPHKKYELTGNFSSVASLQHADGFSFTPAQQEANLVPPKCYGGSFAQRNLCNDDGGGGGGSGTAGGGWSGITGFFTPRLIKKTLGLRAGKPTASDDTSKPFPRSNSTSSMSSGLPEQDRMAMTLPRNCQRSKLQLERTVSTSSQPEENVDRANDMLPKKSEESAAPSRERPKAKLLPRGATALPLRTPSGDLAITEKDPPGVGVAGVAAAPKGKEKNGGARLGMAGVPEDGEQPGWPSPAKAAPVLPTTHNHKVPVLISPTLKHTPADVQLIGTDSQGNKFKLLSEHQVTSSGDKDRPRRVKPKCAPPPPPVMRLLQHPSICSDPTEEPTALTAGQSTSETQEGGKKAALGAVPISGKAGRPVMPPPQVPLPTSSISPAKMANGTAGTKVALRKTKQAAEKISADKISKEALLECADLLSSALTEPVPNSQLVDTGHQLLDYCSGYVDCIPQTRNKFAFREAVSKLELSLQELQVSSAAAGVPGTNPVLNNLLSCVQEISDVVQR
UniProt Q9H2K8, sequence (whole entry, looked up): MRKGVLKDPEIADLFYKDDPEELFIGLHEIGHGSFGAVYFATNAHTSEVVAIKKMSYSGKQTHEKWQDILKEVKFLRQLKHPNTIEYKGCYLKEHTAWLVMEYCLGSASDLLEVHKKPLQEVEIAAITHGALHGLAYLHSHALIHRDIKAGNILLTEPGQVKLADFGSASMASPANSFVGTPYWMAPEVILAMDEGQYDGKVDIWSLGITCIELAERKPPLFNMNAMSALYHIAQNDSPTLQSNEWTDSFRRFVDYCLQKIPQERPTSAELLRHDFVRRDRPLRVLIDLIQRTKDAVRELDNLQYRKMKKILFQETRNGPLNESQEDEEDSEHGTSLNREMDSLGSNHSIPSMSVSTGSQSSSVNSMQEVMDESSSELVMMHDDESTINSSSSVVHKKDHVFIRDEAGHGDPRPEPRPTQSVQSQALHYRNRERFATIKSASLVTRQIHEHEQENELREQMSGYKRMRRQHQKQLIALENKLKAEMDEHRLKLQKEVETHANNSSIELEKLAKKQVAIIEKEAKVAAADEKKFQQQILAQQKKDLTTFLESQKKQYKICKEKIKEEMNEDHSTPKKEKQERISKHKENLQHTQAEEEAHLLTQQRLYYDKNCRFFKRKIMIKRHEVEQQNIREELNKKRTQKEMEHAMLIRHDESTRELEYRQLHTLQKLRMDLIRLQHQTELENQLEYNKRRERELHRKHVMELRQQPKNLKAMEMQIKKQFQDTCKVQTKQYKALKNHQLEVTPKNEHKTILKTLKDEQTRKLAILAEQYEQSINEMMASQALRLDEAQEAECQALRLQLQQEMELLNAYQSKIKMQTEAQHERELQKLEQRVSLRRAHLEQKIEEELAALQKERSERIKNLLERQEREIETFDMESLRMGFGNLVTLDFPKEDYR
UniProt P42336, sequence (whole entry, unmodified, looked up): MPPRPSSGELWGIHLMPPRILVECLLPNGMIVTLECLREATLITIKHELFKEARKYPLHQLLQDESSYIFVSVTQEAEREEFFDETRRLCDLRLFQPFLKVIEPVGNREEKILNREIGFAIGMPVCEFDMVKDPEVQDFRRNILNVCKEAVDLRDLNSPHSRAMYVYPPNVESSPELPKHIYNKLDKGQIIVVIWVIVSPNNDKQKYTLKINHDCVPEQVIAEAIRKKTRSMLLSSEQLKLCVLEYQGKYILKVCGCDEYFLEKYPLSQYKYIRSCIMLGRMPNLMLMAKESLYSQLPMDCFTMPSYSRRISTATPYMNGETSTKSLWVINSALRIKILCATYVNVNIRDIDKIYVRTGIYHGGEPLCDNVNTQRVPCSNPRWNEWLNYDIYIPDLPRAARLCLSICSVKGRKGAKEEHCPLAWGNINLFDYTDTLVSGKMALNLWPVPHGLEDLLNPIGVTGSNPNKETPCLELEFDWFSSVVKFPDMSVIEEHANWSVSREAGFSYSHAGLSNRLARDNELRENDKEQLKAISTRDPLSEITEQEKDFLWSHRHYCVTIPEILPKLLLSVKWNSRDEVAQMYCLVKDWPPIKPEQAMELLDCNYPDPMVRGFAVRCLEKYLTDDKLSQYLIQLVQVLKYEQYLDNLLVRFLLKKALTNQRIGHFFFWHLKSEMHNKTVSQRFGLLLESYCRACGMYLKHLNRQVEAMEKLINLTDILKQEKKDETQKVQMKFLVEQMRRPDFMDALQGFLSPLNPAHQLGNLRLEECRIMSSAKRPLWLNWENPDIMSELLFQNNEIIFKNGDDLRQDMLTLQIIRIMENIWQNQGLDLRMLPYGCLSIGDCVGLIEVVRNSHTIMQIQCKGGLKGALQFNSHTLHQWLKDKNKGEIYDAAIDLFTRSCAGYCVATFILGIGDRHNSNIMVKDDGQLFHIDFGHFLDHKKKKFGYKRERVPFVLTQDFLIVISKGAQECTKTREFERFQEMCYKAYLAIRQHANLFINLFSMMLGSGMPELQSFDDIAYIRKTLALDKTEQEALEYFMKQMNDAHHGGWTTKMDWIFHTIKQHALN
UniProt P10398, sequence (whole entry, looked up): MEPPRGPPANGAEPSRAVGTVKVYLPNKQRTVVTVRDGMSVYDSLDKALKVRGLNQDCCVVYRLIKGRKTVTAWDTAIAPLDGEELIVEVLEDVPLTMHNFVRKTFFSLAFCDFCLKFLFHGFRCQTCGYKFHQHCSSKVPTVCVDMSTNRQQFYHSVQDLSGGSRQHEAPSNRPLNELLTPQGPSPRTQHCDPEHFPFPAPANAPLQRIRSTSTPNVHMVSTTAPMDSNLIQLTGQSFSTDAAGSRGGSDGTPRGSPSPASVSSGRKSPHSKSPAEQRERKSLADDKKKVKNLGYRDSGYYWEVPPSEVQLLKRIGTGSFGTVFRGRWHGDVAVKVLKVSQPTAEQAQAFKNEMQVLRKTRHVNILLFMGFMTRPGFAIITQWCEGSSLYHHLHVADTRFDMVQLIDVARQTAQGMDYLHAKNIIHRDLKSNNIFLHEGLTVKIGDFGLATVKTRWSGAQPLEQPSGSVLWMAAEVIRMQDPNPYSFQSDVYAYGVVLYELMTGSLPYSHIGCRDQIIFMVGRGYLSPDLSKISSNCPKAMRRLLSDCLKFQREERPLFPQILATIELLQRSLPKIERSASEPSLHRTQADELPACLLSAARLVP
UniProt P27361, sequence (whole entry, looked up): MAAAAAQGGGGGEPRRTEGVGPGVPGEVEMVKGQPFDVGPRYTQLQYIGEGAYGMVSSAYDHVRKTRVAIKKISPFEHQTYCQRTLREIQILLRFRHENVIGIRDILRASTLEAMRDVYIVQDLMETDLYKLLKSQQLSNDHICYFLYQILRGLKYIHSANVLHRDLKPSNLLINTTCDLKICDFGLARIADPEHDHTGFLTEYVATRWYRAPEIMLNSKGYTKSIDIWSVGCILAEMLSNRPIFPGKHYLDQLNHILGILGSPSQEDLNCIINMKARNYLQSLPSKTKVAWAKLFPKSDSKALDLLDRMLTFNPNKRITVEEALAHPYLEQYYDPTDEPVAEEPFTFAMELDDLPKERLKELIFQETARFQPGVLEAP

Sample 1 — method: protein-binding microarray; form: double-stranded DNA, one strand shown; matrix: in vitro; tested at: not given; reading: higher = stronger binding
Target: Myc proto-oncogene protein, bHLH-zipper, MAX partner unstated (MYC, Homo sapiens, UniProt P01106, residues 368-449)
UniProt P01106, sequence (368-449, looked up): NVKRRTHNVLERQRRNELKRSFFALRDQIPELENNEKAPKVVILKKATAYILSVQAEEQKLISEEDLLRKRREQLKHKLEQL
Notes: k-mer, scored over probes, only values ≥0.25
Sequence	E-score
ATACCACG	0.393
GTGGCACA	0.295
CGTGCGAC	0.32
CCATGTGA	0.451
GCGCGCAC	0.303
ATCCACAT	0.357
ATGCGGTC	0.318
CGCGTGAG	0.357

Sample 2 — observed: cell-free assay; method: competition with immobilised ligand; tested at: 1 µM
Structure (SMILES): COc1ccc2c(O[C@@H]3C[C@H]4C(=O)N[C@]5(C(=O)O)CC5/C=C\CCCCC[C@H](NC(=O)OC5CCCC5)C(=O)N4C3)cc(-c3csc(NC(=O)C(C)C)n3)nc2c1C (some centres unmarked)
target	remaining binding [%]
MAP3K19 (Homo sapiens, UniProt Q56UN5)	70
CDK13 (Homo sapiens, UniProt Q14004)	77
STK10 (Homo sapiens, UniProt O94804)	100
TAOK3 (Homo sapiens, UniProt Q9H2K8)	88
FGFR1 (Homo sapiens, UniProt P11362)	98
MET (Homo sapiens, UniProt P08581, Y1235D)	100
STK16 (Homo sapiens, UniProt O75716)	100
SRPK1 (Homo sapiens, UniProt Q96SB4)	100
EGFR (Homo sapiens, UniProt P00533, del746-750)	98
PIK3CA (Homo sapiens, UniProt P42336, E542K)	71
STK36 (Homo sapiens, UniProt Q9NRP7)	93
Ribosomal protein S6 kinase alpha-6, C-terminal kinase domain (RPS6KA6, Homo sapiens, UniProt Q9UK32)	100
PRKD3 (Homo sapiens, UniProt O94806)	100
LIM domain kinase 2 (LIMK2, Homo sapiens, UniProt P53671)	100
EGFR (Homo sapiens, UniProt P00533, T790M)	85

Sample 3 — target: CCNE2, cyclin fold, Cln2 fusion (human); method: yeast growth competition, sequencing; matrix: yeast; notes: strong parent motif; relative to: not given; reading: higher = stronger binding
Starting sequence: RBL1 docking peptide (human); GSAKRRLFGEDPP; partner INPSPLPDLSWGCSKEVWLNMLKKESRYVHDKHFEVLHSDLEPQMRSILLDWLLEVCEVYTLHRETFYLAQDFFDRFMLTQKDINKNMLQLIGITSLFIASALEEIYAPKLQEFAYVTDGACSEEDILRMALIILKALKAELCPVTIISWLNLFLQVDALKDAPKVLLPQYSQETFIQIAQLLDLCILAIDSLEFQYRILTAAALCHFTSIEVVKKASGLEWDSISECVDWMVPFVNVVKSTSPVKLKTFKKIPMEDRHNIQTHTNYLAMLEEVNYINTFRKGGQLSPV
Variant	normalised enrichment score
R5K F8L	0.0644
F8C	0.856
K4I	2.21
S2A	4.09
F8G	-0.00856
G1F	5.9
F8M	0.585
F8K	0.935

Sample 4 — observed: enzyme activity; mode: inhibitor; tested at: 0.5 µM; relative to: control
SMILES: Cc1nc(Nc2ncc(C(=O)Nc3c(C)cccc3Cl)s2)cc(N2CCN(CCO)CC2)n1
target	remaining activity [%]
FRK (Homo sapiens, UniProt P42685)	-0.878
MAP3K14 (Homo sapiens, UniProt Q99558)	97.5
MAP2K2 (Homo sapiens, UniProt P36507)	102
ARAF (Homo sapiens, UniProt P10398)	33.8
MST1R (Homo sapiens, UniProt Q04912)	106
FGFR3 (Homo sapiens, UniProt P22607)	86.2
MAPK3 (Homo sapiens, UniProt P27361)	100
TEK (Homo sapiens, UniProt Q02763)	91.3
NEK1 (Homo sapiens, UniProt Q96PY6)	89.8
MAPKAPK2 (Homo sapiens, UniProt P49137)	99.5
CSNK1G3 (Homo sapiens, UniProt Q9Y6M4)	97.2
ABL2 (Homo sapiens, UniProt P42684)	2.74
ULK2 (Homo sapiens, UniProt Q8IYT8)	94.2

Repeated from above (sample 3):
Variant	normalised enrichment score
F8G	-0.00856
F8C	0.856
F8M	0.585
